Experimental data collected from several papers.
Each line is one published result; not all experiments were run side by side. Positions of bridges follow the written chain, without caps; N, C: chain ends. Non-standard residues stand in square brackets, D forms with d. No end group written: not given here. *: point of attachment.
hfq full length assumed: hfq full length assumed (Pseudomonas fluorescens, UniProt C3KDW3)
Chain of UniProt C3KDW3 (whole entry, looked up): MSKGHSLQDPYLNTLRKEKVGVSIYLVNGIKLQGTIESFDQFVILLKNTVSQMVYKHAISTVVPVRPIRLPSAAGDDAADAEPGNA
Chain of UniProt P0A6R3 (whole entry, looked up): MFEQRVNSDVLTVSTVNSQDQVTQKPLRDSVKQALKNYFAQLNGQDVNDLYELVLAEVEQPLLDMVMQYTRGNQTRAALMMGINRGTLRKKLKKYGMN
Chain of UniProt Q07820 (172-320, unmodified, looked up): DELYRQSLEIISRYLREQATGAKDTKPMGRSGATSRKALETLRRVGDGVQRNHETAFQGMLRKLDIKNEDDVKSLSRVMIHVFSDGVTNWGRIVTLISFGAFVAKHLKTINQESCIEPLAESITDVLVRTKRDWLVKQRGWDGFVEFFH
Chain of UniProt Q9I0M3 (whole entry, looked up): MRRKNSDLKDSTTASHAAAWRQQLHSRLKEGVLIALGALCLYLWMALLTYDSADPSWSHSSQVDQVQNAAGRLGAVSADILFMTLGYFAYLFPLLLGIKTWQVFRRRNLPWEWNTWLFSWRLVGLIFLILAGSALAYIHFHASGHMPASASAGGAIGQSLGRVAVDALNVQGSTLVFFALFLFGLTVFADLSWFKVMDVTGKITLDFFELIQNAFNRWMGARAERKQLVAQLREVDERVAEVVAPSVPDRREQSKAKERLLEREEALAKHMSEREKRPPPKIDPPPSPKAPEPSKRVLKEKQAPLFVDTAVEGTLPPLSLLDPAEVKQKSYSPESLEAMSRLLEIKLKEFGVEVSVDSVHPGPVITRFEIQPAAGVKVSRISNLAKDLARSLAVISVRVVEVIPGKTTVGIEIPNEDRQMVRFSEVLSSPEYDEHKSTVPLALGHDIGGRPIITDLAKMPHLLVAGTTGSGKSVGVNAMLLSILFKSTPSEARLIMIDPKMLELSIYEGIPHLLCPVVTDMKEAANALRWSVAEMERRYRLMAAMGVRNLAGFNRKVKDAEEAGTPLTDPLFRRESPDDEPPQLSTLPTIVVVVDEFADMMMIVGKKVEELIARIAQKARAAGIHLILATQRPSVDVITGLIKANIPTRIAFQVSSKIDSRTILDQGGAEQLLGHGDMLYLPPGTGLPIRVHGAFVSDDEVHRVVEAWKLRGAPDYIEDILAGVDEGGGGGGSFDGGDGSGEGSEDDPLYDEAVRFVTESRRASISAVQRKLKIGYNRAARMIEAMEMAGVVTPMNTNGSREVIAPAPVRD

Molecule	tested on	assay	system	conditions	how to read	measurement	result
AGATATCTAATTGTTAGTAAGCTAATTATTG (dsDNA)	HTH marR-type domain-containing protein full length assumed (Staphylococcus aureus, UniProt A0A0H3JPT9)	fluorescence polarization	double-stranded DNA, one strand shown	–	–	Kd	187 nM
CAGATCGATTATGCCCCAATAACCACACTCAACCCATGATGTTTGTTAAGATAGTGGCGAATTGATGCAAAGGAGGTG (dsDNA)	fis full length assumed (Escherichia coli, UniProt P0A6R3)	EMSA	double-stranded DNA, one strand shown	–	–	binding	binds
GGGGCGCGGGTGCCAGGGCGTGCCCTTGGGCTCCCCGGGCGCGTACTCCG (dsDNA)	Int 155-605 (Streptomyces phage phiC31, UniProt Q9T221)	EMSA	double-stranded DNA, one strand shown	–	–	binding	binds
UNC13D D127N/D133N/D941N/D947N	PTK2	co-IP	HEK293	no EGTA, read off a plot	higher = more binding	signal	0.43%
TTCTTTGTGGTATAATTGCAAGAGGT (dsDNA)	Aspartate aminotransferase (Streptococcus pneumoniae, UniProt Q8DNN5)	EMSA	double-stranded DNA, one strand shown	one complex	–	binding	binds
UCUCAGGAUAAGAAUAAUUAAGGAC (ssRNA)	hfq full length assumed	EMSA	RNA	–	–	binding	binds
{FITC-βAla}-KALETLR[S5]VGD[S5]VQRNHETAF (designed peptide (Homo sapiens); staple 8-12; N-terminal FITC-βAla; i,i+4 hydrocarbon staple; FITC = O=C1OC2(c3ccc(O)cc3Oc3cc(O)ccc32)c2ccc(NC(=S)*)cc21; βAla = NCCC(=O)O; S5 = C=CCCC[C@](C)(N)C(=O)O)	MCL1 residues 172-320 (Homo sapiens, UniProt Q07820)	competition with ligand, FP	peptide	read off a plot	–	Ki	3100 nM
CGCUACACCAACAACAAACGGGCUG (ssRNA)	hfq full length assumed	EMSA	RNA	–	–	binding	binds
ACCAGGGCAGGGCGAC (dsDNA)	ftsK 743-811 (Pseudomonas aeruginosa, UniProt Q9I0M3)	NMR	double-stranded DNA, one strand shown	pH 7.0	–	binding	binds
AGCGAAAGTAGCCAGTGGGGTTTCCGACGGCATCGGCA (dsDNA)	rccR (Pseudomonas aeruginosa, UniProt A0A071KWR3)	EMSA	double-stranded DNA, one strand shown	added: KDPG 8 µM	–	binding	binds

Excerpt of the above:
Molecule	tested on	assay	system	conditions	how to read	measurement	result
AGATATCTAATTGTTAGTAAGCTAATTATTG (dsDNA)	HTH marR-type domain-containing protein full length assumed (Staphylococcus aureus, UniProt A0A0H3JPT9)	fluorescence polarization	double-stranded DNA, one strand shown	–	–	Kd	187 nM
